Measured values of several laboratories.
Every numbered part comes from another study and shows a few of its results, in no order. Positions count from the first letter of the parent shown.

Series 1
Target: ABI1, truncated, D143A, DHFR fusion (Arabidopsis thaliana)
Method: DHFR PCA, deep sequencing
Sample: yeast
Setting: methotrexate growth selection, single substitutions
With: (+)-ABA 0.032 µM
Baseline: wild-type fitted maximum
Reading: higher = stronger binding
Starting sequence: PYL1, truncated, DHFR fusion (Arabidopsis thaliana); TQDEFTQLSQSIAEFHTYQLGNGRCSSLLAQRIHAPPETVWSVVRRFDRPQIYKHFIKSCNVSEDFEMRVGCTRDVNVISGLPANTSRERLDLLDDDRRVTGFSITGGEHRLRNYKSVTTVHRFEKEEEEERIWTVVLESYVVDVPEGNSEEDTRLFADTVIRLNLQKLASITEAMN
Substitution	relative binding score [%]
E151T	26.6
V142G	-2.81
N114Y	4.44
Y115Q	2.46
P83G	55.2
I105E	0.792

Series 2
Target: CCNE2, cyclin fold, Cln2 fusion (human)
Method: yeast growth competition, sequencing
Sample: yeast
Setting: weak parent motif
Baseline: not given
Reading: higher = stronger binding
Starting sequence: ORC1 docking peptide (human); PRARKRLELGNLG; partner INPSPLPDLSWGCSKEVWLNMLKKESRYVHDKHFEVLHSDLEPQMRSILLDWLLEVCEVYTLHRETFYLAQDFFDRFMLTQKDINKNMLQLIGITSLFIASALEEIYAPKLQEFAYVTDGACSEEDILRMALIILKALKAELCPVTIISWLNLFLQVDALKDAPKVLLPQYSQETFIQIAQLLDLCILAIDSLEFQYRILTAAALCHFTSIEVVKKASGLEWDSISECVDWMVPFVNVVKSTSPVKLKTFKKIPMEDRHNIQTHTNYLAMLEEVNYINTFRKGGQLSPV
Substitution	normalised enrichment score
PRARKRLELGNLR [G13R]	0.727
PRARKRLENGNLG [L9N]	0.239
PRARKRMELGNLG [L7M]	0.255
PRARKRLETGNLG [L9T]	-0.219
PYARKRLELGNLG [R2Y]	-0.21
PRAKKRLELGNLG [R4K]	-0.24
PRARKRKELGNLG [L7K]	1.2
PRVRKRLELGNLG [A3V]	-0.0795

Series 3
Target: Sal-like protein 4, full length isoform B (SALL4, Homo sapiens, UniProt Q9UJQ4-2, residues 1-616)
Method: universal PBM
Molecule type: double-stranded DNA, one strand shown
Sample: in vitro
Tested at: not given
Setting: 8-mer, flanks averaged, mean of replicates
Reading: higher = stronger binding
Oligonucleotide	E-score
CGACGTCG	-0.112
ACTGCTTG	-0.0282
CCCAAAGA	-0.00794
GAAAATCC	0.0712
AAAAATTT	0.341
CCCATTGA	-0.113
CGTCTGAC	-0.204
AGGCACGG	-0.102
ACCAATCG	0.0938
ATCAATCA	0.234
CAGACCTA	-0.0348

Further values, each from its own experiment
Substance	target	assay	test system	conditions	how to read	quantity	value
PhoQ, residues 284 288 289 292 302 303 TSTLRA	PhoP, residues 12 14 15 18 19 NQAHL (Escherichia coli, UniProt P23836)	Sort-seq, measured: YFP reporter	E. coli	PhoQ-PhoP variant library, with: 10 µM Mg2+	baseline: high Mg2+ state, higher = stronger signaling	fold induction	11.3
